Published values from different studies.
A part holds a random share of what one study measured.
Chain of UniProt Q9UM73 (whole entry, unmodified, looked up): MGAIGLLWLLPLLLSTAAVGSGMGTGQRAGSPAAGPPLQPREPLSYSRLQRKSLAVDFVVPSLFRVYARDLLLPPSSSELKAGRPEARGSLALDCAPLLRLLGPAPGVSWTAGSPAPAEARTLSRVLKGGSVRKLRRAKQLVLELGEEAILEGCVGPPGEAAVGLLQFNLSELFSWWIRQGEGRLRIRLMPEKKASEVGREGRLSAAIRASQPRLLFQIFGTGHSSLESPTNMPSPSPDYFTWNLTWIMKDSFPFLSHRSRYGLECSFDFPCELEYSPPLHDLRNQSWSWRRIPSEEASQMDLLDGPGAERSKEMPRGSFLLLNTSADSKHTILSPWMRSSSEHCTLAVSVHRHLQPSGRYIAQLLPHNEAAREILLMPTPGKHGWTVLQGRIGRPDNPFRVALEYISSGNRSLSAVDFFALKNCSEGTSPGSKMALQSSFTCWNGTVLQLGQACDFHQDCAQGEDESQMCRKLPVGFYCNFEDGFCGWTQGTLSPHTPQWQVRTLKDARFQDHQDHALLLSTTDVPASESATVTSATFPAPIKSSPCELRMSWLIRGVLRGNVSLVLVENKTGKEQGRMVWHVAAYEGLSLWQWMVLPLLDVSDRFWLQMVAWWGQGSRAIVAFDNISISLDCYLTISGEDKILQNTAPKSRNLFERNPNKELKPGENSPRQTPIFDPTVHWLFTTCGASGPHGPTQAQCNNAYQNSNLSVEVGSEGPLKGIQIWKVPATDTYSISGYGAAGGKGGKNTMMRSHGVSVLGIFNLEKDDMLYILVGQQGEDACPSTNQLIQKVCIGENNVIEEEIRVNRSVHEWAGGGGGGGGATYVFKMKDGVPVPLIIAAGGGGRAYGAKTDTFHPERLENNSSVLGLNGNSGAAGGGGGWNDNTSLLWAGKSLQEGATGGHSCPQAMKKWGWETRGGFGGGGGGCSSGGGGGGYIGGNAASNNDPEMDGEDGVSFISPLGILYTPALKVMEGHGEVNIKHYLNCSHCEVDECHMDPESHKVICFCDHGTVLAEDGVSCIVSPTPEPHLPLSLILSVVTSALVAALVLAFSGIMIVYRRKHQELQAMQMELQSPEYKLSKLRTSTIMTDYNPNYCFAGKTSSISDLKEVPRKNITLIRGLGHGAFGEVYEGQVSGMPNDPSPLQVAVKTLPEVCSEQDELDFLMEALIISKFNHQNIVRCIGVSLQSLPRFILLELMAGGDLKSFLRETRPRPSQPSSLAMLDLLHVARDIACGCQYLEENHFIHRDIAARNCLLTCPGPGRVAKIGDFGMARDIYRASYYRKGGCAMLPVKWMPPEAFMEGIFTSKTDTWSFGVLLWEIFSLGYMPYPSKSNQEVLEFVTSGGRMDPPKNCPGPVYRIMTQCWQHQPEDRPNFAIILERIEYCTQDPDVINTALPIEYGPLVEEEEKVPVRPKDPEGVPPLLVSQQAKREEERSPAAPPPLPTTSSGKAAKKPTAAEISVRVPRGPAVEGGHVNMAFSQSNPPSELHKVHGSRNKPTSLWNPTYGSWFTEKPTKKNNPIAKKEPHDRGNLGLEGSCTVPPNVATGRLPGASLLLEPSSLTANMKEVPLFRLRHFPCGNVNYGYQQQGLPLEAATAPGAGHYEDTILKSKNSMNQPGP
Chain of UniProt O96013 (whole entry, looked up): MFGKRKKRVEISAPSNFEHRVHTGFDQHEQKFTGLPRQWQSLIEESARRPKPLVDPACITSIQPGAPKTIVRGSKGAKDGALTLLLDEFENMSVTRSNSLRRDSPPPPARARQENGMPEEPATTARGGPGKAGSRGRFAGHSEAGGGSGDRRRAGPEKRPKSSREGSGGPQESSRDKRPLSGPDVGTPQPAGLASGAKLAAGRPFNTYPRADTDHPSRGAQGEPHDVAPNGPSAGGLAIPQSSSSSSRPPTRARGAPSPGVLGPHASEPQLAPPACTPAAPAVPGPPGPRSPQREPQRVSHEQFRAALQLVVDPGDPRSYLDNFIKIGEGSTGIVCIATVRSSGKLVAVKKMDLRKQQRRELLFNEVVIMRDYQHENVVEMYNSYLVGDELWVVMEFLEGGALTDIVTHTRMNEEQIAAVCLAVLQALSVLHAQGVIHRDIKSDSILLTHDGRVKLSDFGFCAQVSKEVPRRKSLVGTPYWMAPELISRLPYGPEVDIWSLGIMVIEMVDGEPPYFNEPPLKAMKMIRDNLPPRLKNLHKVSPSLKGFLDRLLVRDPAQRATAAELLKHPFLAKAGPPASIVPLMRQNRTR
Chain of UniProt O14965 (whole entry, looked up): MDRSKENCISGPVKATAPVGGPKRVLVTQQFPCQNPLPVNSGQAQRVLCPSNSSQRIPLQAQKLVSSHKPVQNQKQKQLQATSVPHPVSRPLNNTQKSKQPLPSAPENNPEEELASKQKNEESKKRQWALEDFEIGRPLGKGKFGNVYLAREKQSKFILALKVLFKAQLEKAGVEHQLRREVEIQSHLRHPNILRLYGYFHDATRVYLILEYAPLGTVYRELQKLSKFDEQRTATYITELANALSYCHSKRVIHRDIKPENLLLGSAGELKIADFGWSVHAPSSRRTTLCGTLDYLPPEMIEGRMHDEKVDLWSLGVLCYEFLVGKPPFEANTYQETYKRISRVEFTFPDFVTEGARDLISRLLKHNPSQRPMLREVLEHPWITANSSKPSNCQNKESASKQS
Chain of UniProt Q14164 (whole entry, looked up): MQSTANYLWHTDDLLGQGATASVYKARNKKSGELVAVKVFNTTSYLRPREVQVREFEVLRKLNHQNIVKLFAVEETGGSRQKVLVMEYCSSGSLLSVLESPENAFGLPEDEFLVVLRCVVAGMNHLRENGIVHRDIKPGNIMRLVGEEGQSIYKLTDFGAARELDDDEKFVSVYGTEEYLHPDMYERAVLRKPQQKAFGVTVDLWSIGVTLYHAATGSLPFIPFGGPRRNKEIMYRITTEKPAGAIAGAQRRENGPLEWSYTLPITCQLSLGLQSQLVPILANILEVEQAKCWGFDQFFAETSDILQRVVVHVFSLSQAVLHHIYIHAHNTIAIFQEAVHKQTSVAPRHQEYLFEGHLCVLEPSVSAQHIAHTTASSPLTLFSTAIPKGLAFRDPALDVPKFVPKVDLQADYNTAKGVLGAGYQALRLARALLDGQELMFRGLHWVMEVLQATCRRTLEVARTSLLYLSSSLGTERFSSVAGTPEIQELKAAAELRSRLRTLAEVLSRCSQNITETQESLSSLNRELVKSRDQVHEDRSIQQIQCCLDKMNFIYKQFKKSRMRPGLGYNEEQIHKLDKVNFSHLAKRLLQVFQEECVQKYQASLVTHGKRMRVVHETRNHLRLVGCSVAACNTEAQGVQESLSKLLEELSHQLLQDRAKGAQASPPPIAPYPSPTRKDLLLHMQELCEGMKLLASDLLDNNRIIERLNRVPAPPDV
Chain of UniProt P07949 (whole entry, unmodified, looked up): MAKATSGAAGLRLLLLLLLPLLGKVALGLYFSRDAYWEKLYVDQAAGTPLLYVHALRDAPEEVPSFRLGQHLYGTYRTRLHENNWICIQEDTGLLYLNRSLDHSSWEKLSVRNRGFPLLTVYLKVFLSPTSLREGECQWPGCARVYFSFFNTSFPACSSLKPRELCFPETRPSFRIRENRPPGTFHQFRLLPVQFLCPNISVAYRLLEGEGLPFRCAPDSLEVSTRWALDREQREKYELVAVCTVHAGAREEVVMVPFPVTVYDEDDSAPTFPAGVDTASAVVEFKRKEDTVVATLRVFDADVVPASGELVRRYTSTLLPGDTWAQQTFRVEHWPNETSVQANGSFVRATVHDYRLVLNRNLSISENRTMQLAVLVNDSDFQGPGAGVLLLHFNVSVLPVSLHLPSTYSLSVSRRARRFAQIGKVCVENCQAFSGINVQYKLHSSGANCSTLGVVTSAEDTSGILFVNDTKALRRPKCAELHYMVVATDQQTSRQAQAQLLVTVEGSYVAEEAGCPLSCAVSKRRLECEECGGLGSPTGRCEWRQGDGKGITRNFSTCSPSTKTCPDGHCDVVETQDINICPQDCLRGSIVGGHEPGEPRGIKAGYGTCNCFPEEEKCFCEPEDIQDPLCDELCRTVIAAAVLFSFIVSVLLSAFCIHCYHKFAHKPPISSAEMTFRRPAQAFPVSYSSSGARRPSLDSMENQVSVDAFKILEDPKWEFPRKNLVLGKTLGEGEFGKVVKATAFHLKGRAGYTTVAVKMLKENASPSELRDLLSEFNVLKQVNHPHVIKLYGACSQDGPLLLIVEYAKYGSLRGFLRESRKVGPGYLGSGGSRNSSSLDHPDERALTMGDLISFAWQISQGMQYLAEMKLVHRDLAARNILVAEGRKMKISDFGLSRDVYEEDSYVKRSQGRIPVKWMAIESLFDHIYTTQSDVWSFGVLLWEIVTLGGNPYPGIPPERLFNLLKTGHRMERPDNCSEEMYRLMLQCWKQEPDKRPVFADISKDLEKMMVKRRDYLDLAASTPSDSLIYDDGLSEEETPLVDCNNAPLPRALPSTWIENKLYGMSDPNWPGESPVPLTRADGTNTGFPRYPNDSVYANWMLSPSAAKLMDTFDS

Block 1
Organism: Sarcocystis neurona
Read-out: parasite growth
Tested at: 10 µM
Time: 96 h
Setting: first screen
Baseline: untreated
Compound	log2 fold change
C[C@]12C[C@H](O)[C@H]3[C@@H](CCC4=CC(=O)CC[C@@]43C)[C@@H]1CC[C@@H]2C(=O)CO	0.03
Fc1ccc([C@@H]2CCNC[C@H]2COc2ccc3c(c2)OCO3)cc1	-0.19
CN(C)CCOC(c1ccc(Cl)cc1)c1ccccn1 (centres unmarked)	-0.05
O=C(NCCO[N+](=O)[O-])c1cccnc1	-0.06
CC[C@H](C)C(=O)O[C@H]1CCC=C2C=C[C@H](C)[C@H](CC[C@@H]3C[C@@H](O)CC(=O)O3)[C@H]21	-0.33
COc1ccc(Cl)cc1C(=O)NCCc1ccc(S(=O)(=O)NC(=O)NC2CCCCC2)cc1	0.25
NCC(=O)CCC(=O)O	0.23
OCc1cccnc1	0.07

Block 2
Target: Calcium/calmodulin-dependent protein kinase type II subunit alpha (CAMK2A, Homo sapiens, UniProt Q9UQM7)
Chain of UniProt Q9UQM7 (whole entry, looked up): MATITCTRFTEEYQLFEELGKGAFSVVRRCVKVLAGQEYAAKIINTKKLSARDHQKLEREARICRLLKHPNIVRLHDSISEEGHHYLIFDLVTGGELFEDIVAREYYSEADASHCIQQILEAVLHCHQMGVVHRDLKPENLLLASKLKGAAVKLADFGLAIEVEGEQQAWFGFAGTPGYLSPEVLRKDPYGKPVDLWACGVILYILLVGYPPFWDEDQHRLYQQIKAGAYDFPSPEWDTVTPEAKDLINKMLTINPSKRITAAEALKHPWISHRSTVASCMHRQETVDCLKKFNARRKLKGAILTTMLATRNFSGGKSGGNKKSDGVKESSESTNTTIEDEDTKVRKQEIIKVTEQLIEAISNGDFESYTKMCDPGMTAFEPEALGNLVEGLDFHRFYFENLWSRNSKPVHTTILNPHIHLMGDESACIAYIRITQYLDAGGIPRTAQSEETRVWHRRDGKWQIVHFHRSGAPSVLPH
Read-out: enzyme activity
Action: inhibitor
Tested at: 10 µM
SMILES	inhibition [%]
O=c1ccc2ccc(O[C@@H]3O[C@H](CO)[C@@H](O)[C@H](O)[C@H]3O)cc2o1	4
COc1ccc(-c2cc(=O)c3c(O)cc(O)cc3o2)cc1-c1c(O)cc(O)c2c(=O)cc(-c3ccc(O)cc3)oc12	-20
C=CC(=O)N1CCC(c2ccc(C(N)=O)c(-c3ccc(Oc4ccccc4)cc3)n2)CC1	4
CC1(C)OC(=O)C=C[C@]2(C)[C@H]3CC[C@@]4(C)[C@H](c5ccoc5)OC(=O)[C@H]5O[C@]54[C@]3(C)C(=O)C[C@@H]12	-2
O=c1c(O)c(-c2ccc(O)c(O)c2)oc2cc(O)ccc12	68
CCC(=O)O[C@]1(C(=O)CO)CC[C@H]2[C@@H]3CCC4=CC(=O)CC[C@]4(C)[C@H]3CC[C@@]21C	-7
O=C(O)P(=O)(O)O	-12
COC(=O)CCCC(=O)O	-13
CCCOc1ccc(S(=O)(=O)N2CCN(CCO)CC2)cc1-c1nc2c(CCC)cn(CC)c2c(=O)[nH]1	-7

Block 3
Target: Bromodomain-containing protein 4, BD1 (BRD4, Homo sapiens, UniProt O60885)
Tested at: 50 µM
Compound	inhibition [%]
CNC(=O)c1cc(Oc2ccc(NC(=O)Nc3ccc(Cl)c(C(F)(F)F)c3)c(F)c2)ccn1	-5.1
O=C(Nc1c[nH]nc1-c1nc2ccc(CN3CCOCC3)cc2[nH]1)NC1CC1	-5.55
N#C/C(=C(/N)SC1C=CC=CC1)c1cccc(C(O)c2ccncc2)c1 (centres unmarked)	18.6
C#Cc1cccc(Nc2ncnc3cc(OCCOC)c(OCCOC)cc23)c1	-5.2
COc1ccc(Cl)c(Nc2nc3ccccc3nc2NS(=O)(=O)c2cccc(NC(=O)C(C)(C)N)c2)c1	-25
CCS(=O)(=O)c1cccc(-c2cc(C(=O)NC3CCN(C)CC3)c(C)c3[nH]c4ncc(C)cc4c23)c1	17.8

Block 4
SMILES: CO[C@@H](C)c1c(Nc2ccc([C@@H](N(C)C(=O)C3CCS(=O)(=O)CC3)C(F)(F)F)cc2)cnc2cc(Cl)nn12
Read-out: cell-free assay
Method: competition with immobilised ligand
Tested at: 1 µM
target	remaining binding
BTK (Homo sapiens, UniProt Q06187)	100%
PAK4 (Homo sapiens, UniProt O96013)	100%
IKBKE (Homo sapiens, UniProt Q14164)	100%
STK35 (Homo sapiens, UniProt Q8TDR2)	90%
BMPR1B (Homo sapiens, UniProt O00238)	100%
KIT (Homo sapiens, UniProt P10721, A829P)	100%
PRPF4B (Homo sapiens, UniProt Q13523)	91%
PAK2 (Homo sapiens, UniProt Q13177)	81%
RET (Homo sapiens, UniProt P07949, M918T)	85%
Aurora kinase A (AURKA, Homo sapiens, UniProt O14965)	100%
ALK (Homo sapiens, UniProt Q9UM73, C1156Y)	79%
STK17B (Homo sapiens, UniProt O94768)	98%
ALK (Homo sapiens, UniProt Q9UM73)	100%
FRK (Homo sapiens, UniProt P42685)	91%
EGFR (Homo sapiens, UniProt P00533, L858R)	87%

For quick reference, copied from above (block 3):
Compound	inhibition [%]
CNC(=O)c1cc(Oc2ccc(NC(=O)Nc3ccc(Cl)c(C(F)(F)F)c3)c(F)c2)ccn1	-5.1
O=C(Nc1c[nH]nc1-c1nc2ccc(CN3CCOCC3)cc2[nH]1)NC1CC1	-5.55
N#C/C(=C(/N)SC1C=CC=CC1)c1cccc(C(O)c2ccncc2)c1 (centres unmarked)	18.6
C#Cc1cccc(Nc2ncnc3cc(OCCOC)c(OCCOC)cc23)c1	-5.2
COc1ccc(Cl)c(Nc2nc3ccccc3nc2NS(=O)(=O)c2cccc(NC(=O)C(C)(C)N)c2)c1	-25
CCS(=O)(=O)c1cccc(-c2cc(C(=O)NC3CCN(C)CC3)c(C)c3[nH]c4ncc(C)cc4c23)c1	17.8
